Measurements collected from several papers.
A part holds a random share of what one study measured. Positions count from the first letter of the parent shown.

Sample 1
Target: CCNB1, cyclin fold, Cln2 fusion (human)
Method: yeast growth competition, sequencing
Matrix: yeast
Setting: strong parent motif
Relative to: not given
Direction: higher = stronger binding
Starting sequence: viral docking peptide; KGVKRKLFAEDSS
Change	normalised enrichment score
KGVKRKLFAIDSS [E10I]	0.401
KGVKRKQFAEDSS [L7Q]	0.268
KGVKRKLFAEDLS [S12L]	2.51
KGVKRKKFAEDSS [L7K]	0.796
KGVKRKMFAEDSS [L7M]	0.493
KGVKDKLFAEDSS [R5D]	0.227
KGVKRKLFAELSS [D11L]	0.798
KGVKRKLFAEDAS [S12A]	2.46
KGVKRKLFAMDSS [E10M]	0.467
KGVKRKWFAEDSS [L7W]	-0.331
KGVKRDLFAEDSS [K6D]	0.106
KGRKRKLFAEDSS [V3R]	0.308
KGVKRPLFAEDSS [K6P]	0.396
KGVKRKLFMEDSS [A9M]	2.03
KGVKRKLFAEDQS [S12Q]	1.85

Sample 2
Target: HLA class I histocompatibility antigen, A alpha chain, allele A*80:01 (Homo sapiens, UniProt P04439)
Read-out: peptide-MHC binding
Molecule type: peptide
Concentration: concentration not given
Molecule	binding
NYNGLLSSI	inactive
YMLMGFQLK	inactive
HQIWLALRY	active
RTFDRFFEE	inactive
LMRGVKWLK	inactive
LITEQFLCY	active
RRELSKEKL	inactive
HLPGFGTAF	inactive
YRATYSMAL	inactive
GAWCYDYTV	inactive
THADAHTQL	inactive
MMWIPGWFG	inactive
MARPADASM	inactive
RKLTNPANK	inactive
KCNPNLHYW	inactive
LICYQIEYI	inactive
RDRFKRTSF	inactive
NAMGADYYA	inactive
GRYNLVPPK	inactive
ISLQEVFTM	inactive
ATKDSFQSF	inactive
DEGFHAATV	inactive
ALTDLGLIY	active
CERYGFPAS	inactive
GSRAYRNAL	inactive

Sample 3
Target: UBE2A UBC core domain (UniProt P49459)
Sequence of UniProt P49459 (whole entry, looked up): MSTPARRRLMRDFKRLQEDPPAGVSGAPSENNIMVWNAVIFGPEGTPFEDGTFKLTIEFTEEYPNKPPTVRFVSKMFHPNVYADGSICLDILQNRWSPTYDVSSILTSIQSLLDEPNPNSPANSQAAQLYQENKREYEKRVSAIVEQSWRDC
Method: yeast two-hybrid
Matrix: yeast
Setting: mostly zero background
Relative to: not given
Direction: higher = stronger interaction
B1: RBCK1 RING domain (UniProt Q9BYM8); chain SLVLNTEPAECPVCYSVLAPGEAVVLRECLHTFCRECLQGTIRNSQEAEVSCPFIDNTYSCSGKLLEREIK
B2: DTX2 RING domain (UniProt Q86UW9); chain EELKVPPDEDCIICMEKLSTASGYSDVTDSKAIGSLAVGHLTKCSHAFHLLCLLAMYCNGNKDGSLQCPSCKTIYGEKTGTQ
B3: MDM4 RING domain (UniProt O15151); chain MEDCQNLLKPCSLCEKRPRDGNIIHGRTGHLVTCFHCARRLKKAGASCPICKKEIQLVIKVF
B4: DZIP3 RING domain (UniProt Q86Y13); chain PDEEEEEEEPCVICHENLSPENLSVLPCAHKFHAQCIRPWLMQQGTCPTCRLHVLLPEEFP
B5: UBOX5 RING domain (UniProt O94941); chain EQPGSILGPECASCKRVFSPYFKKEPVYQLPCGHLLCRPCLGEKQRSLPMTCTACQRPVASQDVLR
B6: MAP3K1 RING domain (UniProt Q13233); chain NSIKDEEEQMCPICLLGMLDEESLTVCEDGCRNKLHHHCMSIWAEECRRNREPLICPLCRSKWRSHDFYS
B7: RFWD3 RING domain (UniProt Q6PCD5); chain ASMDEEEGDTCTICLEQWTNAGDHRLSALRCGHLFGYRCISTWLKGQVRKCPQCNKKARHSDIVV
Molecule	lacZ reporter activity
PEDRESLKSACVVCLSSFKSCVFLECGHVCSCTECYRALPEPKKCPICRQAITRVIPLY (MUL1 RING domain (UniProt Q969V5))	0
B1 (RBCK1 RING domain)	0
B2 (DTX2 RING domain)	0
GSDDEEIPFKCFICRQSFQNPVVTKCRHYFCESCALQHFRTTPRCYVCDQQTNGVFNPA (RNF113A RING domain (UniProt O15541))	0
AMYLQENGIDCPKCKFSYALARGGCMHFHCTQCRHQFCSGCYNAFYAKNKC (RNF31 RING domain (UniProt Q96EP0))	0
B3 (MDM4 RING domain)	0
B4 (DZIP3 RING domain)	0
B5 (UBOX5 RING domain)	0
GSRLQEINDVCAICYHEFTTSARITPCNHYFHALCLRKWLYIQDTCPMCHQKVYIEDDIK (RNF139 RING domain (UniProt Q8WU17))	0
B6 (MAP3K1 RING domain)	0
B7 (RFWD3 RING domain)	0
FDGDVDPDLKCALCHKVLEDPLTTPCGHVFCAGCVLPWVVQEGSCPARCRGRLSAKELN (PDZRN3 RING domain (UniProt Q9UPQ7))	0

Mixed results
Molecule	partner	test	test system	conditions	quantity	value
HSPA9 (Homo sapiens, UniProt P38646)	CEP192 (Homo sapiens, UniProt Q8TEP8)	cross-linking MS	cells	added: BSPNO	cross-linked residues	K206 to K1936

Excerpt of the above (sample 3):
Molecule	lacZ reporter activity
B1 (RBCK1 RING domain)	0
B6 (MAP3K1 RING domain)	0
PEDRESLKSACVVCLSSFKSCVFLECGHVCSCTECYRALPEPKKCPICRQAITRVIPLY (MUL1 RING domain (UniProt Q969V5))	0
GSDDEEIPFKCFICRQSFQNPVVTKCRHYFCESCALQHFRTTPRCYVCDQQTNGVFNPA (RNF113A RING domain (UniProt O15541))	0
